Published values of several laboratories.
Each line is one published result; not all experiments were run side by side. Numbers after ± are the reported error. Square brackets hold non-standard residues; d marks the D form. Where no end group is shown, it is not given here. Ends that are not written are not given here. No end group written: not given here. [ ]: non-standard residue; d: D form.
PRI1/PRI2 PRI1 1-409, PRI2 49-513 del382-384: PRI1/PRI2 PRI1 1-409, PRI2 49-513 del382-384 (Saccharomyces cerevisiae)
B1: TFAM 43-245 C49S (Homo sapiens, UniProt Q00059); sequence looked up; chain SSVLASSPKKPVSSYLRFSKEQLPIFKAQNPDAKTTELIRRIAQRWRELPDSKKKIYQDAYRAEWQVYKEEISRFKEQLTPSQIMSLEKEIMDKHLKRKAMTKKKELTLLGKPKRPRSAYNVYVAERFQEAKGDSPQEKLKTVKENWKNLSDSEKELYIQHAKEDETRYHNEMKSWEEQMIEVGRKDLLRRTIKKQRKYGAEE
B2: UGT1A9 (Homo sapiens, UniProt O60656); chain GKLLVVPMDGSHWFTMRSVVEKLILRGHEVVVVMPEVSWQLGRSLNCTVKTYSTSYTLEDLDREFKAFAHAQWKAQVRSIYSLLMGSYNDIFDLFFSNCRSLFKDKKLVEYLKESSFDAVFLDPFDNCGLIVAKYFSLPSVVFARGILCHYLEEGAQCPAPLSYVPRILLGFSDAMTFKERVRNHIMHLEEHLLCHRFFKNALEIASEILQTPVTEYDLYSHTSIWLLRTDFVLDYPKPVMPNMIFIGGINCHQGKPLPMEFEAYINASGEHGIVVFSLGSMVSEIPEKKAMAIADALGKIPQTVLWRYTGTRPSNLANNTILVKWLPQNDLLGHPMTRAFITHAGSHGVYESICNGVPMVMMPLFGDQMDNAKRMETKGAGVTLNVLEMTSEDLENALKAVINDKSYKENIMRLSSLHKDRPVEPLDLAVFWVEFVMRHKGAPHLRPAAHDLTWYQYHSLDVIGFLLAVVLTVAFITFKCCAYGYRKCLGKKGRVKKAHKSKTH
B3: sodA Q21C (Escherichia coli, UniProt P00448); Alexa Fluor 647 label; sequence looked up; chain MSYTLPSLPYAYDALEPHFDKCTMEIHHTKHHQTYVNNANAALESLPEFANLPVEELITKLDQLPADKKTVLRNNAGGHANHSLFWKGLKKGTTLQGDLKAAIERDFGSVDNFKAEFEKAAASRFGSGWAWLVLKGDKLAVVSTANQDSPLMGEAISGASGFPIMGLDVWEHAYYLKFQNRRPDYIKEFWNVVNWDEAAARFAAKK
B4: UBI4/POL30 Ub–PCNA fusion K29R/K48R/K63R/G76V/K127R/K164R (Saccharomyces cerevisiae); chain MQIFVKTLTGKTITLEVESSDTIDNVKSRIQDKEGIPPDQQRLIFAGRQLEDGRTLSDYNIQRESTLHLVLRLRGVMLEAKFEEASLFKRIIDGFKDCVQLVNFQCKEDGIIAQAVDDSRVLLVSLEIGVEAFQEYRCDHPVTLGMDLTSLSKILRCGNNTDTLTLIADNTPDSIILLFEDTKKDRIAEYSLKLMDIDADFLRIEELQYDSTLSLPSSEFSKIVRDLSQLSDSINIMITRETIKFVADGDIGSGSVIIKPFVDMEHPETSIKLEMDQPVDLTFGAKYLLDIIKGSSLSDRVGIRLSSEAPALFQFDLKSGFLQFFLAPKFNDEE
B5: TREM2 Ig domain 19-134 R47H (Homo sapiens, UniProt Q9NZC2); sequence looked up; chain HNTTVFQGVAGQSLQVSCPYDSMKHWGRHKAWCRQLGEKGPCQRVVSTHNLWLLSFLRRWNGSTAITDDTLGGTLTITLRNLQPHDAGLYQCQSLHGSEADTLRKVLVEVLADPLD
B6: SERK3 ectodomain 26-225 F144A (Arabidopsis thaliana, UniProt Q94F62); sequence looked up; chain NAEGDALSALKNSLADPNKVLQSWDATLVTPCTWFHVTCNSDNSVTRVDLGNANLSGQLVMQLGQLPNLQYLELYSNNITGTIPEQLGNLTELVSLDLYLNNLSGPIPSTLGRLKKLRALRLNNNSLSGEIPRSLTAVLTLQVLDLSNNPLTGDIPVNGSFSLFTPISFANTKLTPLPASPPPPISPTPPSPAGSNRITG
B7: Rad50 NBD 1-190/686-852 D804C/H830C (Thermotoga maritima, UniProt Q9X1X1); disulfide; chain MRPERLTVRNFLGLKNVDIEFQSGITVVEGPNGAGKSSLFEAISFALFGNGIRYPNSYDYVNRNAVDGTARLVFQFERGGKRYEIIREINALQRKHNAKLSEILENGKKAAIAAKPTSVKQEVEKILGIEHRTFIRTVFLPQGEIDKLLISPPSEITEIISDVFQSKETLEKLEKLLKEKMKKLENEISSGGAGGAGGSLEKKLKEMSDEYNNLDLLRKYLFDKSNFSRYFTGRVLEAVLKRTKAYLDILTNGRFDIDFDDEKGGFIIKDWGIERPARGLSGGERALISISLAMSLAEVASGRLDAFFIDEGFSSLCTENKEKIASVLKELERLNKVIVFITCDREFSEAFDRKLRITGGVVVNE
Sequence of UniProt Q08162 (whole entry, unmodified, looked up): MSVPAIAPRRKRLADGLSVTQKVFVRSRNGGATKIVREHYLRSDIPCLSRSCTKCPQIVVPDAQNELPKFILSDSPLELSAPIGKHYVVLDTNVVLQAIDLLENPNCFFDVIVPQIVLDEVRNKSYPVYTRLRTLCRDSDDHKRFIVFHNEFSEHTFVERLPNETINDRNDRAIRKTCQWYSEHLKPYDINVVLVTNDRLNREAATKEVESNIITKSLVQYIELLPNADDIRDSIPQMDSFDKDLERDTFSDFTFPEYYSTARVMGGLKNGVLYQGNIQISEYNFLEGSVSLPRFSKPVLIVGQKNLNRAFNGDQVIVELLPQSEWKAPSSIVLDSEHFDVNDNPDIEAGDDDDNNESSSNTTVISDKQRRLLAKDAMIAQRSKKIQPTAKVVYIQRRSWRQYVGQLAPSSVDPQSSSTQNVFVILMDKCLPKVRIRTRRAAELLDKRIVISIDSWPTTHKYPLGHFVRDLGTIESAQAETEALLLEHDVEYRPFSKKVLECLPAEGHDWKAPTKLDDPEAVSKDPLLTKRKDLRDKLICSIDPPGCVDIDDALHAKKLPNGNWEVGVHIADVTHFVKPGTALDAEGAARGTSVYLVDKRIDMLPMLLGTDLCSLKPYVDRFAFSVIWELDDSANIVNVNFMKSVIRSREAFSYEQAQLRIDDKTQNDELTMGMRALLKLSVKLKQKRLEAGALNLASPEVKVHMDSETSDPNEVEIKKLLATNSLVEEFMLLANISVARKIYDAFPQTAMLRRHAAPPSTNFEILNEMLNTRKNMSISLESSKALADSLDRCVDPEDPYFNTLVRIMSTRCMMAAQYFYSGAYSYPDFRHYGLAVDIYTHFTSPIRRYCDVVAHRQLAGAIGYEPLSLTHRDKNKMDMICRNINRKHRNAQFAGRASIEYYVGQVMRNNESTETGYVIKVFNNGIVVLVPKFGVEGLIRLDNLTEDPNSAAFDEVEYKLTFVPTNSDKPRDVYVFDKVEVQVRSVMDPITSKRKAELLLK
Sequence of UniProt Q9X1X0 (whole entry, unmodified, looked up): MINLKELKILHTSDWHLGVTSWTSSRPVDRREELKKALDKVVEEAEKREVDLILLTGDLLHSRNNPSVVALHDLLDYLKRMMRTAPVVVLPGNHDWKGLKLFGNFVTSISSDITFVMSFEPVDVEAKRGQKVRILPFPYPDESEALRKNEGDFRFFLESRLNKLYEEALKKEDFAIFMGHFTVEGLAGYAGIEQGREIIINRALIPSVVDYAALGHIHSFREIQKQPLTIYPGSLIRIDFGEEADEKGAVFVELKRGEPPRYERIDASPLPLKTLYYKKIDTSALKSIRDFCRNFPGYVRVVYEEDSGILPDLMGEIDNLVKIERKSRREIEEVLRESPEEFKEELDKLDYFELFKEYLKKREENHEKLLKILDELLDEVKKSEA
Sequence of UniProt Q93100 (whole entry, looked up): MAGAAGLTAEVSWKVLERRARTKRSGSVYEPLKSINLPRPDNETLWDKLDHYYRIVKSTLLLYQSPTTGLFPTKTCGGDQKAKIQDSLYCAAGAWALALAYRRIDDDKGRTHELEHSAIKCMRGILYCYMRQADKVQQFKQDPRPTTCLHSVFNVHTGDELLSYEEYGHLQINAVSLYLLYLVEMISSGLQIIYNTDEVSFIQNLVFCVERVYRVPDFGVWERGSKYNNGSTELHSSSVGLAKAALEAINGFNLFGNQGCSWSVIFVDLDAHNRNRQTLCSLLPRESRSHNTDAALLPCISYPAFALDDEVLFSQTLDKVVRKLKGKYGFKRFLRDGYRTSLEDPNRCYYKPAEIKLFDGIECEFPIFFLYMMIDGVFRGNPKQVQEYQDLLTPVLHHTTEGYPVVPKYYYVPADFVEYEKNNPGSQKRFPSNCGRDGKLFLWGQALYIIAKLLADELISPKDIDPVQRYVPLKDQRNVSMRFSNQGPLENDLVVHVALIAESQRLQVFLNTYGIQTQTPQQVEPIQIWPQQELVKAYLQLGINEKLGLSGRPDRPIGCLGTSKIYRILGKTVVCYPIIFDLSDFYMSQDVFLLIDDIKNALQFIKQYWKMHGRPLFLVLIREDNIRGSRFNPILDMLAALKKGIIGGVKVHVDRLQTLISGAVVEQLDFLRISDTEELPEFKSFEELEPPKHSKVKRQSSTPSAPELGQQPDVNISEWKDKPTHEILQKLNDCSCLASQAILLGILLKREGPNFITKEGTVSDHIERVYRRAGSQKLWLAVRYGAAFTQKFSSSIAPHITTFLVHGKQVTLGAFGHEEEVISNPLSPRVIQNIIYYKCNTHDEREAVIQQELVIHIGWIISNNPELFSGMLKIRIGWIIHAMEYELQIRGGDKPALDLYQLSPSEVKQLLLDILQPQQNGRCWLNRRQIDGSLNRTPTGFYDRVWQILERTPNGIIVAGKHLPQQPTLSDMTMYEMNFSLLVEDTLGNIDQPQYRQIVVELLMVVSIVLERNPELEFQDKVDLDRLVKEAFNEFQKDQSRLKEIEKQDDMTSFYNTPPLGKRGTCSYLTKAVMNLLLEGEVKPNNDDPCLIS
Sequence of UniProt P40151 (whole entry, looked up): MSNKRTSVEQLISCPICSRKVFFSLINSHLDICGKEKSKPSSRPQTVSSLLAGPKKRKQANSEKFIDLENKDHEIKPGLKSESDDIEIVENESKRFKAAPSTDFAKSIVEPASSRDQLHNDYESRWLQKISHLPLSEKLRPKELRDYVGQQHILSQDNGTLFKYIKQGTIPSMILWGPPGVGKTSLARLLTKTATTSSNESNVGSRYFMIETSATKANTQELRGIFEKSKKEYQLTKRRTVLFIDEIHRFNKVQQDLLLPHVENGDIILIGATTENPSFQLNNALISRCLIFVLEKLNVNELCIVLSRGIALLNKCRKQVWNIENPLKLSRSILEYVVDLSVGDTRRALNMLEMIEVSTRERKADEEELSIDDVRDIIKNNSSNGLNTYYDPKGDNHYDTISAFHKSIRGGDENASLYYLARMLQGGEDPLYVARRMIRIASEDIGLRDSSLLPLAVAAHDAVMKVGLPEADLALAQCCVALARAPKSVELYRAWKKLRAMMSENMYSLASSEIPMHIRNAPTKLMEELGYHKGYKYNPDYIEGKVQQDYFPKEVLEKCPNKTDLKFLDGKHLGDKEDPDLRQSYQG
Sequence of UniProt P19466 (whole entry, unmodified, looked up): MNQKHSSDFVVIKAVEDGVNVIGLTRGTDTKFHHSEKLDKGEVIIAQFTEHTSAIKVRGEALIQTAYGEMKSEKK
Sequence of UniProt P26992 (whole entry, unmodified, looked up): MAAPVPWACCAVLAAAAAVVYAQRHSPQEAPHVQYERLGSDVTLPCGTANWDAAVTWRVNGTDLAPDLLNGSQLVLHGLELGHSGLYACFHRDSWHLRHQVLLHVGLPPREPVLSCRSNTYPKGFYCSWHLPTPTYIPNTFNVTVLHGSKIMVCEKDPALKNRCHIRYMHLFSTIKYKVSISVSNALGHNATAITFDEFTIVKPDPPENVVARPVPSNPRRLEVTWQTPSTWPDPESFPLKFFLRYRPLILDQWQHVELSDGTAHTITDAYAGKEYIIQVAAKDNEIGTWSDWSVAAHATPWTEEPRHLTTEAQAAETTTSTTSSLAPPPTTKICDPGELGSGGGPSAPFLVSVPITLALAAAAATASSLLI
Sequence of UniProt P02649 (whole entry, looked up): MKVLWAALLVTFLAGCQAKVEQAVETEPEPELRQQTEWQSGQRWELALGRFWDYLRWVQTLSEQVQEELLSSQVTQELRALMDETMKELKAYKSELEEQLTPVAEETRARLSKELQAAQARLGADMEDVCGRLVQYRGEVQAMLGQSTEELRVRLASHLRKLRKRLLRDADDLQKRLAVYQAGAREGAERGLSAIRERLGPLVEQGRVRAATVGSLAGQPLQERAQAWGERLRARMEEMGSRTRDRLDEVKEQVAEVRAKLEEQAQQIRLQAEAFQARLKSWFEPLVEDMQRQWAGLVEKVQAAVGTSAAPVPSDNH
Sequence of UniProt P11217 (whole entry, looked up): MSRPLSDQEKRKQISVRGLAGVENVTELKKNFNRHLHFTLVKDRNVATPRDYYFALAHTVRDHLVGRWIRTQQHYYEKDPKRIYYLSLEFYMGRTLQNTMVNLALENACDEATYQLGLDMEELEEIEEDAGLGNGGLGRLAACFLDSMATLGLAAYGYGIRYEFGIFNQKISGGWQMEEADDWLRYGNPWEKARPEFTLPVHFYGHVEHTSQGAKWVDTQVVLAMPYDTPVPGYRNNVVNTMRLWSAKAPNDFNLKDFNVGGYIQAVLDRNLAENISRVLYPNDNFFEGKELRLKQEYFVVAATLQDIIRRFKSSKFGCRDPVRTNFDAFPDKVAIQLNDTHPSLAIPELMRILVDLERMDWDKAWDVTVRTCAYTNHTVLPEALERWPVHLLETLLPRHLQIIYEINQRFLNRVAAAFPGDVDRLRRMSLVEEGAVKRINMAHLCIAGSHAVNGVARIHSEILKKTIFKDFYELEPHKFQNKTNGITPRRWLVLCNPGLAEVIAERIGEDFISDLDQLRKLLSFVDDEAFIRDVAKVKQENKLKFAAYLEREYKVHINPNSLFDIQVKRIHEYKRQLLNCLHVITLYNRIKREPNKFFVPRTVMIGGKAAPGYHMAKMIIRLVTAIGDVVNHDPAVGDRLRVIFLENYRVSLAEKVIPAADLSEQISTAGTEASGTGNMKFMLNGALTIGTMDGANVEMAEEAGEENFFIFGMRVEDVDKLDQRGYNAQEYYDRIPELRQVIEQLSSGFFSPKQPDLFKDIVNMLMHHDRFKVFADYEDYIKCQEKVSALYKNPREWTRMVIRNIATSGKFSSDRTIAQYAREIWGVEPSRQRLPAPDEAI
Sequence of UniProt P46948 (whole entry, unmodified, looked up): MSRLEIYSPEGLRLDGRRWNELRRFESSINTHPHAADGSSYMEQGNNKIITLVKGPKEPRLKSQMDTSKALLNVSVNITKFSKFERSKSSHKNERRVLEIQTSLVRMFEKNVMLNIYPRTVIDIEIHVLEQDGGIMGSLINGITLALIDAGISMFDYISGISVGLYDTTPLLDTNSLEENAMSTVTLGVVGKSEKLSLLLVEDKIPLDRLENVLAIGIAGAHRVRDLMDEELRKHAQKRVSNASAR

V[Aib]IA (Aib2; Aib = CC(C)(N)C(=O)O)  cell viability (PC-12; protection from Aβ1–42 toxicity, MTT; concentration not given, 6 h, Aβ to peptide ratio 1:5, added: Aβ1–42 2 µM; baseline: untreated cells): 76.6%
fluorescein-SPT[pS]PSY[pS]PTS (POLR2A CTD peptide consensus heptads, 11-aa; N-fluorescein, pS4, pS8; fluorescein = fluorescein label (fluorescent) on the peptide N-terminus; pS = N[C@@H](COP(=O)(O)O)C(=O)O)  binding (Rngtt 227-567 F367N (Mus musculus, UniProt O55236); fluorescence polarisation; peptide; pH 7.0, 23 °C): binds
Clcf1 (Mus musculus, UniProt Q9QZM3)  binding (CNTFR-Fc Fc fusion 23-342 R110Q/T174P/S237F/I287F/Y177H/K178N/T268A/D269A (Homo sapiens, UniProt P26992); ELISA): binds
DIS3 (Saccharomyces cerevisiae, UniProt Q08162)  binding (RRP45/SKI6/RRP43/RRP46/RRP42/MTR3/RRP4/RRP40/CSL4 1-305 del254-270 (Saccharomyces cerevisiae); reconstitution, SDS-PAGE): binds
Ac-DNCQYVYNV-NH2 (N-acetyl, C-amide)  inhibition (mouse neutrophil elastase; enzyme activity; peptide, neutrophil lysate; 1.25 or 2.5 mM, pH 8.0, 37 °C): inhibited
B1 (TFAM 43-245 C49S)  binding (POLRMT 105-end 105-1230 E555A (Homo sapiens, UniProt O00411); crystal structure): binds
B2 (UGT1A9)  Vmax/Km (COc1ccccc1-c1oc2ccccc2c(=O)c1O; steady-state kinetics; pH 7.4, 37 °C): 18000 µL/min/mg
{SUMO}-SSITKDMKGFKVVEVGLAMNTKKQIGDFFKNLNMAK (NUP159 1425-1460 (Saccharomyces cerevisiae, UniProt P40477); SUMO = SUMO protein tag (N-terminal fusion); sequence looked up)  binding (NUP82 1-452 C396S (Saccharomyces cerevisiae, UniProt P40368); SEC): binds
PYGM (Homo sapiens, UniProt P11217)  binding (PHKB, pS12/pS27/pS701 (Homo sapiens, UniProt Q93100); cross-linking): binds
ASYCKQRNIVWL (designed peptide)  binding (APBA1 PDZ-1 648-746 C654S/C742S (UniProt Q02410); ELISA; peptide; 1 hour): binds
Insulin human  concentration (ELISA; rat, brainstem; intranasal, 20 µg per nostril, 120 min): 110 ± 29.3 pg/mg tissue
GAGUUGAGUUGAGUUGAGUUGAGUUGAGUUGAGUUGAGUUGAGUUGAGUUGAGUU (ssRNA; single strand)  Kd (mtrB full length assumed T30V/D39A (Bacillus subtilis, UniProt P19466); filter binding; added: L-tryptophan 1 mM): 6 ± 1 nM
PRL (Homo sapiens, UniProt P01236)  pKa (NMR, measured: His180; 35 °C, 25 mM NaCl, microscopic; neighbours unprotonated, numbering of the source): 5.96
B3 (sodA Q21C)  binding (sodA Q21C, Alexa Fluor 594 at C21 (Escherichia coli, UniProt P00448); native PAGE; 37 °C): binds
GRRYVDMTSAFDFMLN (POL1 1453-1468 I1462A (Saccharomyces cerevisiae, UniProt P13382); sequence looked up)  binding (PRI1/PRI2 PRI1 1-409, PRI2 49-513 del382-384; pull-down; peptide; 2 h, pH 7.0, 4 °C): binds
B4  binding (MGS1 (Saccharomyces cerevisiae, UniProt P40151); pull-down): binds
B5 (TREM2 Ig domain 19-134 R47H)  binding (APOE ApoE3 (Homo sapiens, UniProt P02649); BLI): binds
V[dP]IA (D-Pro2)  cell viability (PC-12; protection from Aβ1–42 toxicity, MTT; concentration not given, 6 h, Aβ to peptide ratio 1:1, added: Aβ1–42 2 µM; baseline: untreated cells): 72.1%
B6 (SERK3 ectodomain 26-225 F144A)  binding (HAESA/IDA HAESA ectodomain; IDA 15-621, hydroxyproline in IDA (Arabidopsis thaliana); ITC; pH 5.0, 25 °C): binds
SDQEAK (SUMO1 residues 1-6 (Homo sapiens))  binding (HERC2 ZZ domain 2702-2755 (Homo sapiens, UniProt O95714); crystal structure; molecule fused to partner): binds
DIS3 (Saccharomyces cerevisiae, UniProt Q08162)  binding (Exo9 K132E/R206D/W278A (Saccharomyces cerevisiae, UniProt P46948); reconstitution and purification): binds
B7  binding (sbcD 7-385 L7M/H94Q/F291S (Thermotoga maritima, UniProt Q9X1X0); crystal structure): binds
GRRYADMTSIFDFMLN (POL1 1453-1468 V1457A (Saccharomyces cerevisiae, UniProt P13382); sequence looked up)  binding (PRI1/PRI2 PRI1 1-409, PRI2 49-513 del382-384; pull-down; peptide; 2 h, pH 7.0, 4 °C): binds

Repeated from above:
PRL (Homo sapiens, UniProt P01236)  pKa (NMR, measured: His180; 35 °C, 25 mM NaCl, microscopic; neighbours unprotonated, numbering of the source): 5.96
B3 (sodA Q21C)  binding (sodA Q21C, Alexa Fluor 594 at C21 (Escherichia coli, UniProt P00448); native PAGE; 37 °C): binds
GRRYVDMTSAFDFMLN (POL1 1453-1468 I1462A (Saccharomyces cerevisiae, UniProt P13382); sequence looked up)  binding (PRI1/PRI2 PRI1 1-409, PRI2 49-513 del382-384; pull-down; peptide; 2 h, pH 7.0, 4 °C): binds
B4  binding (MGS1 (Saccharomyces cerevisiae, UniProt P40151); pull-down): binds
